Published values of several laboratories.
Each line is one published result; not all experiments were run side by side. ± gives the spread as reported.
B1: phoA 1-150 (Escherichia coli, UniProt P00634); sequence looked up; chain MKQSTIALALLPLLFTPVTKARTPEMPVLENRAAQGDITAPGGARRLTGDQTAALRDSLSDKPAKNIILLIGDGMGDSEITAARNYAEGAGGFFKGIDALPLTGQYTHYALNKKTGKPDYVTDSAASATAWSTGVKTYNGALGVDIHEKD
B2: Il1a 115-270 (Mus musculus, UniProt P01582); chain SAPYTYQSDLRYKLMKLVRQKFVMNDSLNQTIYQDVDKHYLSTTWLNDLQQEVKFDMYAYSSGGDDSKYPVTLKISDSQLFVSAQGEDQPVLLKELPETPKLITGSETDLIFFWKSINSKNYFTSAAYPELFIATKEQSRVHLARGLPSMTDFQIS
B3: Etv2 (Mus musculus, UniProt P41163); sequence looked up; chain MDLWNWDEASLQEVPPGDKLTGLGAEFGFYFPEVALQEDTPITPMNVEGCWKGFPELDWNPALPHEDVPFQAEPVAHPLPWSRDWTDLGCNTSDPWSCASQTPGPAPPGTSPSPFVGFEGATGQNPATSAGGVPSWSHPPAAWSTTSWDCSVGPSGATYWDNGLGGEAHEDYKMSWGGSAGSDYTTTWNTGLQDCSIPFEGHQSPAFTTPSKSNKQSDRATLTRYSKTNHRGPIQLWQFLLELLHDGARSSCIRWTGNSREFQLCDPKEVARLWGERKRKPGMNYEKLSRGLRYYYRRDIVLKSGGRKYTYRFGGRVPVLAYQDDMGHLPGAEGQ
B4: Tbx1 (Mus musculus, UniProt P70323); sequence looked up; chain MHFSTVTRDMEAFAASSLSGLGSPSPGADPFGPREPPPPRYDPCAAVPGAPGPPPPRAYPFAPAPGAAGSSAAESEGPGASRAAAVKAPVKKNPKVASVSVQLEMKALWDEFNQLGTEMIVTKAGRRMFPTFQVKLFGMDPMADYMLLMDFVPVDDKRYRYAFHSSSWLVAGKADPATPGRVHYHPDSPAKGAQWMKQIVSFDKLKLTNNLLDDNGQIILNSMHRYQPRFHVVYVDPRKDSEKYAEENFKTFVFEETRFTAVTAYQNHRITQLKIASNPFAKGFRDCDPEDWPRNHRPGALPLVSAFARSRNPVASPTQPNGSDKDAAEARREFDRDSGPAALGDATHPPQLLARVLSPALPGPGGLVPLPGGSGGRHSPPHADLRLEAPGASEPLHHHPYKYPAAAYDHYLGAKSRPAPYPLPGLRGHGYHPHAHPHAHPHHHHHPAVNPAAAAAAAAAANVYSSAAAPPGAYDYCPR
B5: STAU1 A375E/R376A/L472S/S473E (Homo sapiens, UniProt O95793-2); sequence looked up; chain MKLGKKPMYKPVDPYSRMQSTYNYNMRGGAYPPRYFYPFPVPPLLYQVELSVGGQQFNGKGKTRQAAKHDAAAKALRILQNEPLPERLEVNGRESEEENLNKSEISQVFEIALKRNLPVNFEVARESGPPHMKNFVTKVSVGEFVGEGEGKSKKISKKNAAIAVLEELKKLPPLPAVERVKPRIKKKTKPIVKPQTSPEYGQGINPISRLAQIQQAKKEKEPEYTLLTERGLPRRREFVMQVKVGNHTAEGTGTNKKVAKRNAAENMLEILGFKVPQAQPTKPALKSEEKTPIKKPGDGRKVTFFEPGSGDENGTSNKEDEFRMPYLSHQQLPAGILPMVPEVAQAVGVSQGHHTKDFTRAAPNPAKATVTAMIEAELLYGGTSPTAETILKNNISSGHVPHGPLTRPSEQLDYLSRVQGFQVEYKDFPKNNKNEFVSLINCSSQPPLISHGIGKDVESCHDMAALNILKLSEELDQQSTEMPRTGNGPMSVCGRC
B6: MIF4GD K10A (Homo sapiens, UniProt A9UHW6); sequence looked up; chain MGEPSREEYAIQSFDAETQQLLKTALKDPGAVDLEKVANVIVDHSLQDCVFSKEAGRMCYAIIQAESKQAGQSVFRRGLLNRLQQEYQAREQLRARSLQGWVCYVTFICNIFDYLRVNNMPMMALVNPVYDCLFRLAQPDSLSKEEEVDCLVLQLHRVGEQLEKMNGQRMDELFVLIRDGFLLPTGLSSLAQLLLLEIIEFRAAGWKTTPAAHKYYYSEVSD
B7: CRYBB1 59-252 (Homo sapiens, UniProt P53674); sequence looked up; chain YRLVVFELENFQGRRAEFSGECSNLADRGFDRVRSIIVSAGPWVAFEQSNFRGEMFILEKGEYPRWNTWSSSYRSDRLMSFRPIKMDAQEHKISLFEGANFKGNTIEIQGDDAPSLWVYGFSDRVGSVKVSSGTWVGYQYPGYRGYQYLLEPGDFRHWNEWGAFQPQMQSLRRLRDKQWHLEGSFPVLATEPPK
B8: GNAO1 (Rattus norvegicus, UniProt P59215); sequence looked up; chain MGCTLSAEERAALERSKAIEKNLKEDGISAAKDVKLLLLGAGESGKSTIVKQMKIIHEDGFSGEDVKQYKPVVYSNTIQSLAAIVRAMDTLGVEYGDKERKADSKMVCDVVSRMEDTEPFSAELLSAMMRLWGDSGIQECFNRSREYQLNDSAKYYLDSLDRIGAADYQPTEQDILRTRVKTTGIVETHFTFKNLHFRLFDVGGQRSERKKWIHCFEDVTAIIFCVALSGYDQVLHEDETTNRMHESLMLFDSICNNKFFIDTSIILFLNKKDLFGEKIKKSPLTICFPEYPGSNTYEDAAAYIQTQFESKNRSPNKEIYCHMTCATDTNNIQVVFDAVTDIIIANNLRGCGLY
B9: NCOA3 627-829 (Homo sapiens, UniProt Q9Y6Q9); Cy5 label; sequence looked up; chain CSSDDRGHSSLTNSPLDSSCKESSVSVTSPSGVSSSTSGGVSSTSNMHGSLLQEKHRILHKLLQNGNSPAEVAKITAEATGKDTSSITSCGDGNVVKQEQLSPKKKENNALLRYLLDRDDPSDALSKELQPQVEGVDNKMSQCTSSTIPSSSQEKDPKIKTETSEEGSGDLDNLDAILGDLTSSDFYNNSISSNGSHLGTKQQ
B10: Ctnnb1 (Mus musculus, UniProt Q02248); sequence looked up; chain MATQADLMELDMAMEPDRKAAVSHWQQQSYLDSGIHSGATTTAPSLSGKGNPEEEDVDTSQVLYEWEQGFSQSFTQEQVADIDGQYAMTRAQRVRAAMFPETLDEGMQIPSTQFDAAHPTNVQRLAEPSQMLKHAVVNLINYQDDAELATRAIPELTKLLNDEDQVVVNKAAVMVHQLSKKEASRHAIMRSPQMVSAIVRTMQNTNDVETARCTAGTLHNLSHHREGLLAIFKSGGIPALVKMLGSPVDSVLFYAITTLHNLLLHQEGAKMAVRLAGGLQKMVALLNKTNVKFLAITTDCLQILAYGNQESKLIILASGGPQALVNIMRTYTYEKLLWTTSRVLKVLSVCSSNKPAIVEAGGMQALGLHLTDPSQRLVQNCLWTLRNLSDAATKQEGMEGLLGTLVQLLGSDDINVVTCAAGILSNLTCNNYKNKMMVCQVGGIEALVRTVLRAGDREDITEPAICALRHLTSRHQEAEMAQNAVRLHYGLPVVVKLLHPPSHWPLIKATVGLIRNLALCPANHAPLREQGAIPRLVQLLVRAHQDTQRRTSMGGTQQQFVEGVRMEEIVEGCTGALHILARDVHNRIVIRGLNTIPLFVQLLYSPIENIQRVAAGVLCELAQDKEAAEAIEAEGATAPLTELLHSRNEGVATYAAAVLFRMSEDKPQDYKKRLSVELTSSLFRTEPMAWNETADLGLDIGAQGEALGYRQDDPSYRSFHSGGYGQDALGMDPMMEHEMGGHHPGADYPVDGLPDLGHAQDLMDGLPPGDSNQLAWFDTDL
B11: FBXO5 zinc binding region (Homo sapiens); chain SEVAKTLKKNESLKACIRCNSPAKYDCYLQRATCKREGCGFDYCTKCLCNYHTTKDCSDGKLLKASCKIG
B12: SPDL1 54-605 (Homo sapiens, UniProt Q96EA4); sequence looked up; chain SYEQEKYTLQREVELKSRMLESLSCECEAIKQQQKMHLEKLEEQLSRSHGQEVNELKTKIEKLKVELDEARLSEKQLKHQVDHQKELLSCKSEELRVMSERVQESMSSEMLALQIELTEMESMKTTLKEEVNELQYRQEQLELLITNLMRQVDRLKEEKEEREKEAVSYYNALEKARVANQDLQVQLDQALQQALDPNSKGNSLFAEVEDRRAAMERQLISMKVKYQSLKKQNVFNREQMQRMKLQIATLLQMKGSQTEFEQQERLLAMLEQKNGEIKHLLGEIRNLEKFKNLYDSMESKPSVDSGTLEDNTYYTDLLQMKLDNLNKEIESTKGELSIQRMKALFESQRALDIERKLFANERCLQLSESENMKLRAKLDELKLKYEPEETVEVPVLKKRREVLPVDITTAKDACVNNSALGGEVYRLPPQKEETQSCPNSLEDNNLQLEKSVSIYTPVVSLSPHKNLPVDMQLKKEKKCVKLIGVPADAEALSERSGNTPNSPRLAAESKLQTEVKEGKETSSKLEKETCKKLHPILYVSSKSTPETQCPQQ
Sequence of UniProt P04412 (whole entry, looked up): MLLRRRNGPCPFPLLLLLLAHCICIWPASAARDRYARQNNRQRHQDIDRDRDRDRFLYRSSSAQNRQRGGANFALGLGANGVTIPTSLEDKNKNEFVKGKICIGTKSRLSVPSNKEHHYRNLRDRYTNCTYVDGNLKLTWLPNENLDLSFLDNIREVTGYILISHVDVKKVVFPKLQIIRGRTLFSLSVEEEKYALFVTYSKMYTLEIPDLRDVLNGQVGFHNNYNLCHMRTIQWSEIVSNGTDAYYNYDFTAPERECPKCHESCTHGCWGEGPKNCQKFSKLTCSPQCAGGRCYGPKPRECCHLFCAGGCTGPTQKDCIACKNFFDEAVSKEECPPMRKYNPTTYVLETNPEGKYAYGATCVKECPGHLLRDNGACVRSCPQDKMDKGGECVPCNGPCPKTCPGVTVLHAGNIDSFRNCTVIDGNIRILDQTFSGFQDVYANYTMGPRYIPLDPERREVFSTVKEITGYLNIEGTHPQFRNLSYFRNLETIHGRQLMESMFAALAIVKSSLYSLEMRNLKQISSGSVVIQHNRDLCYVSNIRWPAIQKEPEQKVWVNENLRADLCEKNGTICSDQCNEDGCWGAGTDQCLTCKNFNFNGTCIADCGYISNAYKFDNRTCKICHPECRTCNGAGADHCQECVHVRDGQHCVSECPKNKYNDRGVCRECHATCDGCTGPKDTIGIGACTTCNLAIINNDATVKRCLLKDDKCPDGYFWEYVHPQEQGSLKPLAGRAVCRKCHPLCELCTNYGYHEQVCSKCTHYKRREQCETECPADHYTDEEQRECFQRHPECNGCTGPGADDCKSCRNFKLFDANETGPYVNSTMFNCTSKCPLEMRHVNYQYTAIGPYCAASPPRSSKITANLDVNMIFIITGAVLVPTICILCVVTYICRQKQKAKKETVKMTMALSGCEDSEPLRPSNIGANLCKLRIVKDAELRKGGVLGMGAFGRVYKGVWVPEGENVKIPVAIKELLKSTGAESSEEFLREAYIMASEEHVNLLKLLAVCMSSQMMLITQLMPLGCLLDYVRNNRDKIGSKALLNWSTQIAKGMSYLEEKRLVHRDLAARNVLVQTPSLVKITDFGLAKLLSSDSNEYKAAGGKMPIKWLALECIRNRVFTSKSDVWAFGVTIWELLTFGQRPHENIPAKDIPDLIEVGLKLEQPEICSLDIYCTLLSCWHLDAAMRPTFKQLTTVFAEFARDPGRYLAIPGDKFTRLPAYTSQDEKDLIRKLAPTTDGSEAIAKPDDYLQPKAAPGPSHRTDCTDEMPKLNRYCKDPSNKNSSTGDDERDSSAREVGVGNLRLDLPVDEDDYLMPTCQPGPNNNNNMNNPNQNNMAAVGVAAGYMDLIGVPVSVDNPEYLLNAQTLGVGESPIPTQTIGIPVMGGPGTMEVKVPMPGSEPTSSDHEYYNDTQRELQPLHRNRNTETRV
Sequence of UniProt Q9Y2K7 (whole entry, unmodified, looked up): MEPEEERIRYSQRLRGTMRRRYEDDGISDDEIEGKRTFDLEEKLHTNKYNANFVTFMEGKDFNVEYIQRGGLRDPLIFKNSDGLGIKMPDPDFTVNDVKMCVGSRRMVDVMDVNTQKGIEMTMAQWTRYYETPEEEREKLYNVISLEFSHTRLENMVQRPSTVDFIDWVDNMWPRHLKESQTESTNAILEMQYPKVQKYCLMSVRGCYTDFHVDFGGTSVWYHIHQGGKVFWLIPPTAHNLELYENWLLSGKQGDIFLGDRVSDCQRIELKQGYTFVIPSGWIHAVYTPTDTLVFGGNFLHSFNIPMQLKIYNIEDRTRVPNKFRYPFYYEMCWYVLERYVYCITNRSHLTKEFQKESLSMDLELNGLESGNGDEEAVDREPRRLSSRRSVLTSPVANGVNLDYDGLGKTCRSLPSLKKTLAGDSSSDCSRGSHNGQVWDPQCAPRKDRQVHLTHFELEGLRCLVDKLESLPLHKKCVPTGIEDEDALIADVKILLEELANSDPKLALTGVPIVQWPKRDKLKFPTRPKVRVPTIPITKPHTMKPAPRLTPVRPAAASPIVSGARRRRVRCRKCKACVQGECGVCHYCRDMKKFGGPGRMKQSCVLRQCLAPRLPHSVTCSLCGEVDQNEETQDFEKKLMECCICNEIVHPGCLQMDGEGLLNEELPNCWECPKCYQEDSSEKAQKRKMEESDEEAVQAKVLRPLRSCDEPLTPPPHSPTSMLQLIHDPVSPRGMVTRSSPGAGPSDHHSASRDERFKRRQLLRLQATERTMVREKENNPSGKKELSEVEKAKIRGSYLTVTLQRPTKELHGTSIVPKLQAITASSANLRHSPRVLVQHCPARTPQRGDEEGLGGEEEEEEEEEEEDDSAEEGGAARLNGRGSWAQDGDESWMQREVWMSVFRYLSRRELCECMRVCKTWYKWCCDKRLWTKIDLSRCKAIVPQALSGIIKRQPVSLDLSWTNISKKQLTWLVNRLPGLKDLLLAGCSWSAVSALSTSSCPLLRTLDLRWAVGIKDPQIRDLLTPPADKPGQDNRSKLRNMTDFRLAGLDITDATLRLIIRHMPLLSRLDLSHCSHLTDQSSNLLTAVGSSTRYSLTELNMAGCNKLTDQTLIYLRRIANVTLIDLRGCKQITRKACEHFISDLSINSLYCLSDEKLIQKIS
Sequence of UniProt O09100 (whole entry, looked up): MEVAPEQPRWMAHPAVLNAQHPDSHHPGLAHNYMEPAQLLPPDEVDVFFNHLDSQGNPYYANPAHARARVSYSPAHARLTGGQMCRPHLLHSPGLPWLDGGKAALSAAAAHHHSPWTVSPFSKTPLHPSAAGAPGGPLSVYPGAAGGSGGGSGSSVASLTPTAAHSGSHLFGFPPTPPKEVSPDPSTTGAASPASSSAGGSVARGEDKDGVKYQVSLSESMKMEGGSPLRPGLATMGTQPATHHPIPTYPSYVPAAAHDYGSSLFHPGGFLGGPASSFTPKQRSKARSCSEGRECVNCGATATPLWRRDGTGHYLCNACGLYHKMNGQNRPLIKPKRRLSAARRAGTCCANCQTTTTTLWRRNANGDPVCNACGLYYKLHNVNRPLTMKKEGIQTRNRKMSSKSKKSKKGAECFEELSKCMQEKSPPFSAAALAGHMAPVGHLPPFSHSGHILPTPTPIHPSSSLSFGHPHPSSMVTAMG
Sequence of UniProt O93603 (whole entry, looked up): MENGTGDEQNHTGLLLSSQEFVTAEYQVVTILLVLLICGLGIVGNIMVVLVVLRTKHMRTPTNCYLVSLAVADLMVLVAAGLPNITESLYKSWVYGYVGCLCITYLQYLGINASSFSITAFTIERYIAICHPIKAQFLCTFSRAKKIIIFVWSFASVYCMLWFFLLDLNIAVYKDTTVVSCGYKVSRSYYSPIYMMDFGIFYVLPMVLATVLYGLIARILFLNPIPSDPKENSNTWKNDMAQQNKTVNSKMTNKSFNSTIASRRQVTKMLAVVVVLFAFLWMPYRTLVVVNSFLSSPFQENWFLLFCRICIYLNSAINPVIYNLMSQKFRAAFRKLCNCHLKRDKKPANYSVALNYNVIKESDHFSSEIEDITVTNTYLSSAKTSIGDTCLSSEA
Sequence of UniProt P0A988 (whole entry, looked up): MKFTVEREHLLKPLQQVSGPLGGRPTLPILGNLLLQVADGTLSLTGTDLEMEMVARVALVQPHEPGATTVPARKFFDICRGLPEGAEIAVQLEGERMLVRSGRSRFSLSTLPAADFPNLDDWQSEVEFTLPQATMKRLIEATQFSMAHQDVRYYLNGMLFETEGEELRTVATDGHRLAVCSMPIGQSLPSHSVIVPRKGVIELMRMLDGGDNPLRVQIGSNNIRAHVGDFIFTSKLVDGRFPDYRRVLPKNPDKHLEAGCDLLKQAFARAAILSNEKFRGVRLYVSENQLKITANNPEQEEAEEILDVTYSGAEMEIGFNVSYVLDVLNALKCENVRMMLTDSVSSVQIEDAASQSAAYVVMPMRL
Sequence of UniProt Q14493 (whole entry, looked up): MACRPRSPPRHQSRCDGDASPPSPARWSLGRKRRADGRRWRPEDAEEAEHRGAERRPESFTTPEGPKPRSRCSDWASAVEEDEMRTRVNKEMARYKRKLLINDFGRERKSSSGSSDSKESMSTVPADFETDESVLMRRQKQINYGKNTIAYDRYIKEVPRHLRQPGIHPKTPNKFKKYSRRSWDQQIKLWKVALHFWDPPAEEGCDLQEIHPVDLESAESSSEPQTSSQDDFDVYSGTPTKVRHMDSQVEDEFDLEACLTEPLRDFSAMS
Sequence of UniProt P13504 (whole entry, looked up): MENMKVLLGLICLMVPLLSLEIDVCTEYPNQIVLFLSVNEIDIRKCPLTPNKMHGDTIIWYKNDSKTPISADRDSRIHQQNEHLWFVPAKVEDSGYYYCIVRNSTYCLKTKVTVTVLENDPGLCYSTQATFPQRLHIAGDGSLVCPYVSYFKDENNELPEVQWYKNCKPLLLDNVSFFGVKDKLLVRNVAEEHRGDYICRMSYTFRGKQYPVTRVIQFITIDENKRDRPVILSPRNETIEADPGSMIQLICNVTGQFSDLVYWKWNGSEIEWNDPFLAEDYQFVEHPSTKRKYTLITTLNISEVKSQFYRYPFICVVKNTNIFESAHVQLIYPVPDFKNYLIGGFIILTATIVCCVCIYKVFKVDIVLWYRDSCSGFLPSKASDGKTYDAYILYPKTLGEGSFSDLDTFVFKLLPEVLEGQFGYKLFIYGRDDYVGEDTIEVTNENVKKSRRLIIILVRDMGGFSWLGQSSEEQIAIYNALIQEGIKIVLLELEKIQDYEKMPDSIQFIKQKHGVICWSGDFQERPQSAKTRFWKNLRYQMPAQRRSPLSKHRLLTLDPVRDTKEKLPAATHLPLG
Sequence of UniProt P05813 (whole entry, looked up): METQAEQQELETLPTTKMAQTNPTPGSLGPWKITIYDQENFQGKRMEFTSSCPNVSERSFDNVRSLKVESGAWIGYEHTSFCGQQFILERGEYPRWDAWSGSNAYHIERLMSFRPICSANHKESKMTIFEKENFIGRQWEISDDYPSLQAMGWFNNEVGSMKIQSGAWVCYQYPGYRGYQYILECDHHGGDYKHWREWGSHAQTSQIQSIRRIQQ

Substance	partner	assay	system	conditions	scale	quantity	value
B1 (phoA 1-150)	tig fragment M374A/Y378A/V384A/F387A (Escherichia coli)	ITC	–	pH 7.0	relative to: TF^WT, higher = weaker binding	affinity decrease	6 fold
B2 (Il1a 115-270)	Il1r1 (Mus musculus, UniProt P13504)	MTS assay	BECs	10-50 ng/mL, 24 h, added: IL-1RA	relative to: vehicle control	proliferation	113%
Hu 15C1 monovalent, half Fc (Homo sapiens)	FCGR1A (Homo sapiens, UniProt P12314)	LPS-induced TLR4 activation	THP1-XBlue	without IVIg	relative to: format without Fc, higher = greater potency gain	potency gain	> 1000 fold
B3 (Etv2)	Gata2 (Mus musculus, UniProt O09100)	Tie2 promoter luciferase	C2C12	–	higher = more activation	reporter activity	64 fold
B4 (Tbx1)	PITX2 1-271 (Homo sapiens, UniProt Q99697-3)	p21 promoter luciferase	LS-8	added: PITX2A	higher = more activation	reporter activation	4 fold activation
LWAAQRYGRELRRMSDEFVDSFKKGLPR (BAD 104-131 (Homo sapiens, UniProt Q92934); sequence looked up)	BCL2L1 1-209 Y101H/F105L/Q111G/S122I/Q125V/V126A/L130I/A142G/F146A (Homo sapiens, UniProt Q07817-1)	fluorescence polarisation	peptide	–	–	Ki	0.26 nM
B5 (STAU1 A375E/R376A/L472S/S473E)	UPF1 (Homo sapiens, UniProt Q92900)	reporter mRNA in eIF4E IP, tethering, IP	–	in cells, not purified	relative to: λN-HA-GFP, higher = more enrichment	mRNA enrichment	4.8 fold
CAND1, FlAsH label (UniProt Q86VP6)	CUL2/RBX1, AMCA label on C-terminal tag (Homo sapiens)	FRET or BRET	–	100 nM, no neddylation, added: VBC 200 nM	–	dissociation half-life	20 min
Spitz EGF domain, Alexa Fluor 488 label (Drosophila melanogaster)	Egfr extracellular region 31-868 (Drosophila melanogaster, UniProt P04412)	fluorescent ligand binding assay	–	two independent site classes, added: biotinylated receptor	–	Kd of lower-affinity sites	1300 nM
B6 (MIF4GD K10A)	SLBP, phosphorylated, multiple sites (Homo sapiens, UniProt Q14493)	SPR	–	pH 7.4, 25 °C, NaCl 150 mM	–	koff	0.00117 s⁻¹
POR (Homo sapiens, UniProt P16435)	HMOX1 R254K (Homo sapiens, UniProt P09601)	HO-1 activity	–	added: HO-1 0.05 µM	–	CYPOR:HO-1 ratio at peak activity	0.5 ratio
B7 (CRYBB1 59-252)	CRYBA1, Alexa Fluor 488 label (Homo sapiens, UniProt P05813)	FRET	–	pH 7.5, 37 °C, 100 mM NaCl	–	subunit exchange rate	0.0072 ± 0.0013 min⁻¹
thyrotropin-releasing hormone, pyroGlu, C-terminal amide (Gallus gallus)	protein (Gallus gallus, UniProt O93603)	calcium signaling, NFAT-RE luciferase reporter, agonist	HEK 293	–	–	EC50	0.22 nM
B8 (GNAO1)	RGS4 (Rattus norvegicus, UniProt P49799)	pull-down	rat brain	added: GTPγS 1 µM	relative to: no nucleotide, higher = more Goα bound	relative binding	2.8 fold
B9 (NCOA3 627-829)	THRB/RXRA TRβ , RXRα full length 87-461 (Homo sapiens)	coregulator recruitment, tr-FRET	–	1 hr, pH 8, added: T3 µM	–	EC50	19.1 nM
histone H3 peptide G34A, K36me2	KDM2A 36-517 del365-449 (UniProt Q9Y2K7)	demethylation	–	–	relative to: wild-type H3K36me2 peptide, higher = less demethylation	demethylation	3 fold reduction
NME7 (Homo sapiens, UniProt Q9Y5B8-1)	TUBG1/TUBGCP2/TUBGCP3/TUBGCP4/TUBGCP5/TUBGCP6 γ-tubulin ring complex (Homo sapiens)	microtubule nucleation, activator	–	–	relative to: γTuRC alone, higher = more nucleation	relative microtubule nucleation	2.5 fold
BicD coiled-coil domain 1 (Drosophila melanogaster)	DYNC1H1/DYNC1I2/DYNC1LI2/DYNLT1/DYNLRB1/DYNLL1 (Homo sapiens)	single-molecule TIRF	–	–	relative to: wild-type complex, higher = more binding	binding frequency	4.5 fold
B10 (Ctnnb1)	Cdh1 157-884 (Mus musculus, UniProt P09803)	co-IP	HEK293T	1.0 µg	relative to: control, higher = more E-cadherin	E-cadherin coprecipitated	0.18 a.u.
pyrrhocoricin-P7 fusion, N-terminal FITC, Cha, free acid (Pyrrhocoris apterus)	dnaN (Escherichia coli, UniProt P0A988)	bactericidal activity	E. coli D22	–	–	MBC	128 µg/mL
B11 (FBXO5 zinc binding region)	APC/C (Homo sapiens)	ubiquitination assay	–	apparent, without CDH1, added: UBE2S	–	Ki	> 80000 nM
CGA/LHB (Equus caballus)	LHCGR Y558F (eel)	cAMP response, agonist, HTRF	CHO-K1	30 min, room temperature	–	EC50	0.345 µg/mL
B12 (SPDL1 54-605)	KNTC1/ZW10/ZWILCH	SPR	–	–	–	molecule per partner	> 4
EGF mature (Mus musculus)	Egfr whole, on cells (Rattus norvegicus)	radioligand binding	NRK	0.3 nM, not TGF-beta treated, added: FeSV-Fre TGF-beta	–	specific binding	390 cpm/well

Repeated from above:
Substance	partner	assay	system	conditions	scale	quantity	value
CAND1, FlAsH label (UniProt Q86VP6)	CUL2/RBX1, AMCA label on C-terminal tag (Homo sapiens)	FRET or BRET	–	100 nM, no neddylation, added: VBC 200 nM	–	dissociation half-life	20 min
NME7 (Homo sapiens, UniProt Q9Y5B8-1)	TUBG1/TUBGCP2/TUBGCP3/TUBGCP4/TUBGCP5/TUBGCP6 γ-tubulin ring complex (Homo sapiens)	microtubule nucleation, activator	–	–	relative to: γTuRC alone, higher = more nucleation	relative microtubule nucleation	2.5 fold
